Measured values collected from several papers.
Compare with care: the assays were run in different laboratories. ± marks the error that the study gave.
4'-phosphopantetheinyl transferase PptT: 4'-phosphopantetheinyl transferase PptT (Mycobacterium tuberculosis, UniProt O33336)
Sequence of UniProt O33336 (whole entry, looked up): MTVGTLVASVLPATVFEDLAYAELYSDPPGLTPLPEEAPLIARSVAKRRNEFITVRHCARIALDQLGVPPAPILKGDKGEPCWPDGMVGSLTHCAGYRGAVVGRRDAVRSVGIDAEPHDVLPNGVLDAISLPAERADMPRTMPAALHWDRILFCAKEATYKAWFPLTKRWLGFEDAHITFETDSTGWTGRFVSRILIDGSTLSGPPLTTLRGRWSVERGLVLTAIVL
USP14: Ubiquitin carboxyl-terminal hydrolase 14 (USP14, Homo sapiens, UniProt P54578)
Sequence of UniProt P54578 (whole entry, looked up): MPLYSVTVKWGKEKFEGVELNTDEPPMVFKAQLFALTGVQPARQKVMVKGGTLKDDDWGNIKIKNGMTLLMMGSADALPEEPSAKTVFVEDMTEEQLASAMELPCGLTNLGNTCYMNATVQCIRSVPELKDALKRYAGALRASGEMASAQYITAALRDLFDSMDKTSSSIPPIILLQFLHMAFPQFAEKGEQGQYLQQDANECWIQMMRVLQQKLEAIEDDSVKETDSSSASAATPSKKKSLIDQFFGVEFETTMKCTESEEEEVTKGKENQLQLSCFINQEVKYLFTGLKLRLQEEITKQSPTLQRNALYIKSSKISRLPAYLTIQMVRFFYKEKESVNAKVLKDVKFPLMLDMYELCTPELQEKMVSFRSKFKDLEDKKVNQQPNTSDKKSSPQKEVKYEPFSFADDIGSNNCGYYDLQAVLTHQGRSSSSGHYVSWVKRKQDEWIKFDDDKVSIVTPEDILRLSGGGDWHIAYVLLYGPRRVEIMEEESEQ
CNR1 Y397A: Cannabinoid receptor 1 (CNR1, Homo sapiens, UniProt P21554, Y397A)
Sequence of UniProt P21554 (whole entry, unmodified, looked up): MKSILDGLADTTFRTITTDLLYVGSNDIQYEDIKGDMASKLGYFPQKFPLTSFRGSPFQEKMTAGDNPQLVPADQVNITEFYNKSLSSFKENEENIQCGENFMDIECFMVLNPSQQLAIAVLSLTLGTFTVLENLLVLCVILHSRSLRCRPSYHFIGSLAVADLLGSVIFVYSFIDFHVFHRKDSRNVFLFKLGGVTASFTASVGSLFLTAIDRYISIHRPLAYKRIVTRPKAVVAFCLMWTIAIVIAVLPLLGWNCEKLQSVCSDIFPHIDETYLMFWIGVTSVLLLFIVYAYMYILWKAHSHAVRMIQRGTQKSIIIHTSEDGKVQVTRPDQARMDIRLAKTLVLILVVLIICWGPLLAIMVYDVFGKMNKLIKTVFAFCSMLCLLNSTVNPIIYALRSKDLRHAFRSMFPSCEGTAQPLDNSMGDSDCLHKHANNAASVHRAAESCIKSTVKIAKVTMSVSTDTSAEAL
dppA: dppA (Mycobacterium tuberculosis, UniProt I6X811)
Sequence of UniProt P9WG47 (whole entry, looked up): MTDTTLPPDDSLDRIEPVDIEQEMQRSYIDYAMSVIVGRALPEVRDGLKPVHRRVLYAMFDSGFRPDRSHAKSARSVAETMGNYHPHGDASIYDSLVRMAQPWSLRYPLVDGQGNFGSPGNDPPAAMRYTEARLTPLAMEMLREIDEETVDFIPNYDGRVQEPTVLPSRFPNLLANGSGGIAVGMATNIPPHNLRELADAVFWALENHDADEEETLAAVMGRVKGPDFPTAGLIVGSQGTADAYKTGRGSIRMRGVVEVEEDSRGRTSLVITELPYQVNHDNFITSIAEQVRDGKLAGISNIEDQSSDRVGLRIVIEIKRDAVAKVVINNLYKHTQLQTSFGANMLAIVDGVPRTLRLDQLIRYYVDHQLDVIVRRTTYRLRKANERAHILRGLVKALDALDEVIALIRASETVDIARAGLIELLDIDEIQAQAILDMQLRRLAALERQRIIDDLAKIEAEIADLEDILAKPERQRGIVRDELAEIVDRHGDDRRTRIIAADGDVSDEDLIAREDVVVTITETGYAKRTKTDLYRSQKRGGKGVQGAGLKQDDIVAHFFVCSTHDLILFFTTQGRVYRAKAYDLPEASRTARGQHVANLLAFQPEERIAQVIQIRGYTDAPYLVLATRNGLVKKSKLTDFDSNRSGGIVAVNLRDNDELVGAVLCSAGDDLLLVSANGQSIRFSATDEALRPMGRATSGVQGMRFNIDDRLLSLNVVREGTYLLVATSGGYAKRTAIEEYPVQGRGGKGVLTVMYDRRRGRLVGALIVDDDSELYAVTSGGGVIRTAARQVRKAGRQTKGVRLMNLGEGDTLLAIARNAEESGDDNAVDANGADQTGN
Sequence of UniProt P41586 (whole entry, looked up): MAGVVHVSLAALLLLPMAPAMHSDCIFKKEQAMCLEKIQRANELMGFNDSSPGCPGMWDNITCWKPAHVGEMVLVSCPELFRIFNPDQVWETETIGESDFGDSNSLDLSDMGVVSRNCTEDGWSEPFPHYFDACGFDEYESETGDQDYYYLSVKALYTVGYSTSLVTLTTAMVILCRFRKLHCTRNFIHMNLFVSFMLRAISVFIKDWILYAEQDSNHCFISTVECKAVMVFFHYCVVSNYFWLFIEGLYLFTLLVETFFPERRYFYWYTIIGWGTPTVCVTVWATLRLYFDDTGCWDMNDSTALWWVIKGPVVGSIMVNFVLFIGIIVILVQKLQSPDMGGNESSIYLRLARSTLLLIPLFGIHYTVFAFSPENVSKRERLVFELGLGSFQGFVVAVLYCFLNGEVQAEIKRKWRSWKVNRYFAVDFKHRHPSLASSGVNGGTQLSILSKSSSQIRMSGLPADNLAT
Sequence of UniProt P29371 (whole entry, looked up): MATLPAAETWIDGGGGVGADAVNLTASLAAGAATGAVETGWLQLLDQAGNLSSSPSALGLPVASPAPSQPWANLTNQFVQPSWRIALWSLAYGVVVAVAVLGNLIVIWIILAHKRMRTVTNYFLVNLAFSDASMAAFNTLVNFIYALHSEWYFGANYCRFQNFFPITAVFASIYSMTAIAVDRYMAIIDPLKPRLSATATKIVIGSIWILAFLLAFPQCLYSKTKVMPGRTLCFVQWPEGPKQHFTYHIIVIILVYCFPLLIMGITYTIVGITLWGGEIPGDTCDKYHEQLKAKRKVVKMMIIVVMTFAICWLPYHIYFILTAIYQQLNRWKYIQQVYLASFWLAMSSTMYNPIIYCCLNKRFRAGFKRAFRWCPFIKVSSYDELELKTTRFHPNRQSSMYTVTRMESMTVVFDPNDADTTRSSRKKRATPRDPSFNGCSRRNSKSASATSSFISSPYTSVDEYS
Sequence of UniProt P08311 (whole entry, looked up): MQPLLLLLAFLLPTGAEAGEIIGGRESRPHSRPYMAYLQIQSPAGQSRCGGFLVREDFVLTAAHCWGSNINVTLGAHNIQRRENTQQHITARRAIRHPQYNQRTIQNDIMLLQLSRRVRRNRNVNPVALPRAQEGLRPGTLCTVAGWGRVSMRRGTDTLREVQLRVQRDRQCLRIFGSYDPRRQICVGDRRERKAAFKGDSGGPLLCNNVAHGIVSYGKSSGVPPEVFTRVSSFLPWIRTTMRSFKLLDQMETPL
Sequence of UniProt Q01959 (whole entry, looked up): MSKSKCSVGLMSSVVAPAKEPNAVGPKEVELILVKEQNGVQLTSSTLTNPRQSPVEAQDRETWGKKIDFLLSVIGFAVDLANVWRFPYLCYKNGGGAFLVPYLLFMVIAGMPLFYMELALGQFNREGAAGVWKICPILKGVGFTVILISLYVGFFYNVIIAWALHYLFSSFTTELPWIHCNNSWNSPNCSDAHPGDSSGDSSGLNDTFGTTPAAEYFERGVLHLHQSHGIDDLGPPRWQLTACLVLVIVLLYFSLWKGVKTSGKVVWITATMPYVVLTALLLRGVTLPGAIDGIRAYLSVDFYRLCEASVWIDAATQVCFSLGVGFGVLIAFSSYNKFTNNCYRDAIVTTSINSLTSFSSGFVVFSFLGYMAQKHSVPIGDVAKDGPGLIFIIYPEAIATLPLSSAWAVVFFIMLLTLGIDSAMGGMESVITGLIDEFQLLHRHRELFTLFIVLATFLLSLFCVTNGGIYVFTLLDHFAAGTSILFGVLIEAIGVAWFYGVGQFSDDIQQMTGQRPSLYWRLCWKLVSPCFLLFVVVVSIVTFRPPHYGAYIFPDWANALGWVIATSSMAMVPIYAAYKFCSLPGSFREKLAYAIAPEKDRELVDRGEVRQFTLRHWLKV
Sequence of UniProt Q96GD4 (whole entry, looked up): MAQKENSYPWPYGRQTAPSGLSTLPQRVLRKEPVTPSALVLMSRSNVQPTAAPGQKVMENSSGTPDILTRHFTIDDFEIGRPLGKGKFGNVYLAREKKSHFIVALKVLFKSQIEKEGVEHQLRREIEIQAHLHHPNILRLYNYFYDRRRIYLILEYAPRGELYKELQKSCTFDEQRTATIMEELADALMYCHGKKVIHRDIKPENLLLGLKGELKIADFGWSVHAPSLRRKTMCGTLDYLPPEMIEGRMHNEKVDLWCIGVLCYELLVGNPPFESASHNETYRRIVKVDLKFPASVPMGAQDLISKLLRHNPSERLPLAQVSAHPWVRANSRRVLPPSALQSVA

SMILES	target	assay	system	setting	how to read	quantity	result
C#CCN(Cc1ccc2nc(C)[nH]c(=O)c2c1)c1ccc(C(=O)N[C@H](CCC(=O)O)C(=O)O)cc1	4'-phosphopantetheinyl transferase PptT	enzyme activity, inhibitor, fluorescence polarisation				Hill slope	1.2
CN1C(=O)C(=Cc2ccc(I)o2)C(=O)NC1=S	USP14	enzyme activity, inhibitor		17 µM		inhibition	36%
Cc1nc2ccc(CNc3ccc(C(=O)NC(CCC(=O)O)C(=O)O)cc3F)cc2c(=O)[nH]1 (stereo not shown)	4'-phosphopantetheinyl transferase PptT	enzyme activity, inhibitor, fluorescence polarisation				Hill slope	1.5
CCCCCn1cc(C(=O)c2ccc3ccccc3c2)c2ccccc21	CNR1 (Homo sapiens, UniProt P21554, F177A)	Gαi1 engagement, agonist, BRET			baseline: reference agonist at wild-type CB1	Emax	10.9 ± 2.2%
COc1ccccc1C(C[N+](=O)[O-])c1c(-c2ccccc2)[nH]c2ccccc12 (stereo not shown)	CNR1 Y397A	Gαi1-γ2 dissociation, BRET				Emax	64.8 ± 5.49%
CCN(Cc1ccc2nc(C)[nH]c(=O)c2c1)c1ccc(C(=O)NC(CCC(=O)O)C(=O)O)s1 (stereo not shown)	4'-phosphopantetheinyl transferase PptT	enzyme activity, inhibitor, fluorescence polarisation				Hill slope	1
CCC[C@H](C(=O)c1ccccc1)N1CCCC1	SLC6A3 (Homo sapiens, UniProt Q01959)	DAT-mediated current, inhibitor, electrophysiology	human DAT-expressing cells	100 µM, together with: 30 µM dopamine		maximal inhibition rate (kapp max)	0.7 s⁻¹
Cc1nc2ccc(CN(C)c3ccc(C(=O)NC(CCC(=O)O)CC(=O)O)cc3)cc2c(=O)[nH]1 (stereo not shown)	4'-phosphopantetheinyl transferase PptT	enzyme activity, inhibitor, fluorescence polarisation				Hill slope	1.4
Cc1ccc2c(C(C[N+](=O)[O-])c3cccs3)c(-c3ccccc3)[nH]c2c1 (stereo not shown)	CNR1 Y397A	Gαi1-γ2 dissociation, BRET				Emax	56.7 ± 1.19%
CCCCCn1cc(C(=O)c2cccc3c2CC(C)(C)C3)c2ccccc21	CNR1 (Homo sapiens, UniProt P21554)	cAMP inhibition, agonist, CAMYEL BRET biosensor		together with: forskolin 10 µM	baseline: reference agonist at wild type	Emax	101 ± 2.6%
Nc1ccc(/C=C/C(=O)N2CCc3c(oc4c(-c5ccc(F)cc5)cc(-c5ccc(C(=O)N6CCC(F)(F)CC6)cn5)cc34)C2)cn1	Aurora kinase B (AURKB, Homo sapiens, UniProt Q96GD4)	binding, competition with immobilised ligand		1 µM		remaining binding	92%
C[C@H](N)C(=O)N[C@@H](C)C(=O)N[C@@H](C)C(=O)N[C@@H](C)C(=O)O	dppA			pH 7.4		kon	3.21 ± 2000 M⁻¹ s⁻¹
CN(Cc1ccc2nc(CF)[nH]c(=O)c2c1)c1ccc(C(=O)NC(CCC(=O)O)C(=O)O)s1 (stereo not shown)	4'-phosphopantetheinyl transferase PptT	enzyme activity, inhibitor, fluorescence polarisation				Hill slope	0.9
CC[C@H](C)[C@H](NC(=O)[C@H](CO)NC(=O)[C@H](CC(N)=O)NC(=O)[C@H](CC(C)C)NC(=O)[C@H](Cc1ccc(O)cc1)NC(=O)[C@H](CCCCN)NC(=O)[C@H](CCCCN)NC(=O)[C@@H](NC(=O)[C@H](C)NC(=O)[C@H](CCSC)NC(=O)[C@H](CCC(N)=O)NC(=O)[C@H](CCCCN)NC(=O)[C@H](CCCNC(=N)N)NC(=O)[C@H](CC(C)C)NC(=O)[C@H](CCCNC(=N)N)NC(=O)[C@@H](NC(=O)[C@H](Cc1ccc(O)cc1)NC(=O)[C@H](CC(N)=O)NC(=O)[C@H](CC(=O)O)NC(=O)[C@@H](NC(=O)[C@H](Cc1ccccc1)NC(=O)[C@@H](NC(=O)[C@H](C)NC(=O)[C@H](CC(=O)O)NC(=O)[C@H](CO)NC(=O)[C@@H](N)Cc1c[nH]cn1)C(C)C)[C@@H](C)O)[C@@H](C)O)C(C)C)C(=O)N[C@@H](CC(C)C)C(=O)N[C@@H](CC(N)=O)C(N)=O	ADCYAP1R1 (Homo sapiens, UniProt P41586)	cAMP production, agonist	COS-7	37 °C, AUC over 20 min		Emax	72 ± 4%
CC[C@H](C)[C@@H]1NC(=O)CNC(=O)[C@@H]2Cc3c([nH]c4cc(O)ccc34)[S@+]([O-])C[C@H](NC(=O)CNC1=O)C(=O)N[C@@H](CC(N)=O)C(=O)N1C[C@H](O)C[C@H]1C(=O)N[C@@H]([C@@H](C)[C@@H](O)CO)C(=O)N2	DNA-directed RNA polymerase II subunit RPB1 (Homo sapiens, UniProt P24928)		HeLa nuclear extract	30.00 nM, 60 min		transcription activity	23 ± 3%
CC(C)[C@H](NC(=O)[C@@H](NC(=O)[C@@H](N)CCCCN)C(C)C)C(=O)O	dppA			pH 7.4		kon	2.21 ± 3000 M⁻¹ s⁻¹
COc1ccc2ncc(F)c(C[C@H](O)[C@H]3OC[C@H](NCc4ccc5c(n4)NC(=O)CO5)CO3)c2c1	DNA gyrase subunit A, with GyrB (Mycobacterium tuberculosis, UniProt P9WG47)	DNA cleavage		concentration not given, 10 min, 37 °C, together with: gyrase 100 nM		maximal single-stranded DNA breaks	~15%
Cc1nc2ccc(CN(C)c3ccc(C(=O)NC(CCC(=O)O)C(=O)O)cc3)cc2c(=O)[nH]1 (stereo not shown)	4'-phosphopantetheinyl transferase PptT	enzyme activity, inhibitor, fluorescence polarisation				Hill slope	1.4
CCCCCn1cc(C(=O)c2cccc3ccccc23)c2ccccc21	CNR1 (Homo sapiens, UniProt P21554, F174A)	Gαi1 engagement, agonist, BRET			baseline: reference agonist at wild-type CB1	Emax	114 ± 2%
C#CCN(Cc1ccc2nc(C)[nH]c(=O)c2c1)c1ccc(C(=O)NC(CCCC(=O)O)C(=O)O)cc1 (stereo not shown)	4'-phosphopantetheinyl transferase PptT	enzyme activity, inhibitor, fluorescence polarisation				Hill slope	1.2
O=[N+]([O-])CC(c1ccco1)c1c(-c2ccccc2)[nH]c2ccccc12 (stereo not shown)	Cannabinoid receptor 1, with Gi2 (CNR1, Homo sapiens, UniProt P21554)	Gi2 dissociation, agonist, BRET				Emax	46.1 ± 3.13%
CCOc1cc(C=C2C(=O)NC(=O)NC2=O)cc(Cl)c1O	USP14	enzyme activity, inhibitor		17 µM		inhibition	35%
CC(C)[C@H](NC(=O)[C@H](CO)NC(=O)[C@@H](N)CO)C(=O)N[C@H](C(=O)O)[C@@H](C)O	dppA	thermal stability		50 µM		ΔTm	4.4 °C
C#CCN(Cc1ccc2nc(CC)[nH]c(=O)c2c1)c1ccc(C(=O)NC(CCC(=O)O)C(=O)O)cc1 (stereo not shown)	4'-phosphopantetheinyl transferase PptT	enzyme activity, inhibitor, fluorescence polarisation				Hill slope	1.2
CC(C)[C@H](N)C(=O)N[C@H](C(=O)N[C@H](C(=O)O)C(C)C)C(C)C	dppA			pH 7.4		kon	3.44 ± 20000 M⁻¹ s⁻¹
CC(C)CC(C(=O)N1CC2(CC1C#N)C(=O)Nc1ccccc12)N(C)C(=O)c1cc2c(F)cc(F)c(F)c2[nH]1 (stereo not shown)	Cathepsin G (CTSG, Homo sapiens, UniProt P08311)					Hill slope	-0.34
CC(C)C[C@H](NC(=O)[C@H](CC(C)C)NC(=O)[C@H](CC(C)C)NC(=O)[C@@H](N)CC(C)C)C(=O)O	dppA			pH 7.4		kon	4.26 ± 300 M⁻¹ s⁻¹
Cc1sc2c(c1C)C(c1ccc(Cl)cc1)=NC(CC(=O)OC(C)(C)C)c1nnc(C)n1-2 (stereo not shown)	TACR3 (Homo sapiens, UniProt P29371)	ligand displacement, radioligand		1 µM		remaining binding	123%

Excerpt of the above:
SMILES	target	assay	system	setting	how to read	quantity	result
C#CCN(Cc1ccc2nc(C)[nH]c(=O)c2c1)c1ccc(C(=O)N[C@H](CCC(=O)O)C(=O)O)cc1	4'-phosphopantetheinyl transferase PptT	enzyme activity, inhibitor, fluorescence polarisation				Hill slope	1.2
CN1C(=O)C(=Cc2ccc(I)o2)C(=O)NC1=S	USP14	enzyme activity, inhibitor		17 µM		inhibition	36%
Cc1nc2ccc(CNc3ccc(C(=O)NC(CCC(=O)O)C(=O)O)cc3F)cc2c(=O)[nH]1 (stereo not shown)	4'-phosphopantetheinyl transferase PptT	enzyme activity, inhibitor, fluorescence polarisation				Hill slope	1.5
CCCCCn1cc(C(=O)c2ccc3ccccc3c2)c2ccccc21	CNR1 (Homo sapiens, UniProt P21554, F177A)	Gαi1 engagement, agonist, BRET			baseline: reference agonist at wild-type CB1	Emax	10.9 ± 2.2%
